Measurements from different studies.
Numbered parts are unrelated; each lists some results of a single study.

Series 1
Target: Sal-like protein 4, full length isoform A (SALL4, Homo sapiens, UniProt Q9UJQ4, residues 1-1053)
UniProt Q9UJQ4, sequence (whole entry, looked up): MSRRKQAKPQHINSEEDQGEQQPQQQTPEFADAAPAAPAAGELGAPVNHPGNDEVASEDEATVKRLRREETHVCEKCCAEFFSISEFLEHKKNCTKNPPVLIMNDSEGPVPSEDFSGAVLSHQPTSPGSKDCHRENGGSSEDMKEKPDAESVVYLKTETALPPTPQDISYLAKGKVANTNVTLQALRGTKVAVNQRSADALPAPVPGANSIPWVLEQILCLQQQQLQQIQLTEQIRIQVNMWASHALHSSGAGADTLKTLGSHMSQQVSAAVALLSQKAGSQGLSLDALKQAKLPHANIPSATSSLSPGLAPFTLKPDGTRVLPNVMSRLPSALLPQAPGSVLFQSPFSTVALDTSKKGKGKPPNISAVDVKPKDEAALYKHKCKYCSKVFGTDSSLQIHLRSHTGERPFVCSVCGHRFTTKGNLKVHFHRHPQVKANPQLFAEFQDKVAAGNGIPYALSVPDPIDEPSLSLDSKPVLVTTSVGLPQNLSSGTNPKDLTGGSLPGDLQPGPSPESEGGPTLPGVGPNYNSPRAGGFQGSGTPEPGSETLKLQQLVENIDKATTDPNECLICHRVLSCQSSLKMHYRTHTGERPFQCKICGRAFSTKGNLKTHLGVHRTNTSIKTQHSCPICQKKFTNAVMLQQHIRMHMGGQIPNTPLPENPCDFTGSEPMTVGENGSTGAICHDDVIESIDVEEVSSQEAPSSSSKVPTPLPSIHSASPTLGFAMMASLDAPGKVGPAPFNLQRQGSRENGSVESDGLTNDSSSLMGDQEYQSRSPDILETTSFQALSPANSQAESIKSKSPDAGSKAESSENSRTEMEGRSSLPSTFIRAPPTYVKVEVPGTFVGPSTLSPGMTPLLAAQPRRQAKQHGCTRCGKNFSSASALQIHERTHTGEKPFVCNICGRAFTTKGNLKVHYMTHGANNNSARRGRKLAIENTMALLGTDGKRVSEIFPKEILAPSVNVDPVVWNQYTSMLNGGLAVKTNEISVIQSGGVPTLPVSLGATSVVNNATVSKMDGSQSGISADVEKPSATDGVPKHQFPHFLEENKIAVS
Technique: universal PBM
Form: double-stranded DNA, one strand shown
Medium: in vitro
Tested at: 600 nM
Setting: 8-mer, flanks averaged, mean of replicates
Direction: higher = stronger binding
Endpoint: E-score
CTAACGCC: -0.104
GTTCAGGA: -0.0398
ACCTAGAG: -0.0624
CAACAGGG: -0.191
CGTTTCTA: 0.0918
GACTGGTA: -0.11

Series 2
Target: Prothrombin, mature alpha-thrombin (F2, Homo sapiens, UniProt P00734)
Technique: aptamer microarray, sandwich
Form: DNA with 2'F-ANA
Medium: in vitro
Tested at: 200 nM
Setting: whole 15-mer aptamer, many near background
With: Cy3 exosite-II aptamer, 400 nM
Direction: higher = stronger binding
Endpoint: mean fluorescence intensity
Sequence: GGTTGGTGTGGTTGG
2'F-ANA at 1 2 3 6 8 10 13 14 15: 56.9 a.u.
2'F-ANA at 1 2 3 4 6 8 11: 138 a.u.
2'F-ANA at 2 4 5 6 8 9 10 14 15: 51.6 a.u.
2'F-ANA at 1 4 6 10 13: 47.2 a.u.
2'F-ANA at 4 5 6 7 8 9 10 13 14: 60.4 a.u.

Series 3
Target: Ras GTPase-activating protein-binding protein 1, RRM domain (G3BP1, Homo sapiens, UniProt Q13283)
UniProt Q13283, sequence (whole entry, looked up): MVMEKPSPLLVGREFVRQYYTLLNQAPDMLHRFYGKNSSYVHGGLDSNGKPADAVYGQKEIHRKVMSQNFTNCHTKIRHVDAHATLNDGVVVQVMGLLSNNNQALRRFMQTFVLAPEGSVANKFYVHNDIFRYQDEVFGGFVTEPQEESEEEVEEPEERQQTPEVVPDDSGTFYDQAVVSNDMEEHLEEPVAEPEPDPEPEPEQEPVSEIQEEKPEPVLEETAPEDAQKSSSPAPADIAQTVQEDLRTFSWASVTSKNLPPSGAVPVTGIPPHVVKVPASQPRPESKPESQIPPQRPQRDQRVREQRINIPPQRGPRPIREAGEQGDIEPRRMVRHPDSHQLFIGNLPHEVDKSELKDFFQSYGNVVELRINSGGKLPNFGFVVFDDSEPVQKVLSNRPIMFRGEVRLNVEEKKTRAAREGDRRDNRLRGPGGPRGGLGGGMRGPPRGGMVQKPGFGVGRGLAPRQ
Technique: RNA Bind-n-Seq
Form: RNA
Medium: in vitro
Tested at: 1 µM
Setting: whole 134-nt RNA, ends assumed
With: 150 mM KCl
Relative to: input library
Direction: higher = stronger binding
Endpoint: log2 enrichment
GGGAGUUCUACAGUCCGACGAUCCAAGUCCUGUGCUACACAUCGUAUGUACCGAAUCGGGAAAAAGGGAAAGGGUGGGAAAGUAUUAUGUUACGCCGUUCGGAUCUGCACUUCUGGAAUUCUCGGGUGUCAAGG: 0.959
GGGAGUUCUACAGUCCGACGAUCAAGUCCUGUGCUACACAUCGUAUGUACCGAAUCGGUGGUUUUUUUGGAAAAAAAGGAAAGUAUUAUGUUACGCCGUUCGGAUCUGCACUUUGGAAUUCUCGGGUGUCAAGG: -0.203
GGGAGUUCUACAGUCCGACGAUCUCAAGUCCUGUGCUACACAUCGUAUGUACCGAAUCGGGGUUGGGUUGGGUUGGGGAAAGUAUUAUGUUACGCCGUUCGGAUCUGCACUUCUGGAAUUCUCGGGUGUCAAGG: 0.742
GGGAGUUCUACAGUCCGACGAUCAAGUCCUGUGCUACACAUCGUAUGUACCGAAUCGGGAAAAGGGGAAAAGGAAAAGGAAAGUAUUAUGUUACGCCGUUCGGAUCUGCACUUUGGAAUUCUCGGGUGUCAAGG: -0.217

Further values, each from its own experiment
PhoQ, residues 284 288 289 292 302 303 NLSRDF
fold induction (PhoP, residues 12 14 15 18 19 GQAIL (Escherichia coli, UniProt P23836); Sort-seq, measured: YFP reporter; E. coli; PhoQ-PhoP variant library, with: 10 µM Mg2+; relative to: high Mg2+ state, higher = stronger signaling): 8.93

Excerpt of the above (series 1):
CAACAGGG: -0.191
CGTTTCTA: 0.0918
